Values quoted from earlier work as cited in several papers.
Each numbered part shows a few of the values that one paper quotes.
Sequence of UniProt P14618 (whole entry, looked up): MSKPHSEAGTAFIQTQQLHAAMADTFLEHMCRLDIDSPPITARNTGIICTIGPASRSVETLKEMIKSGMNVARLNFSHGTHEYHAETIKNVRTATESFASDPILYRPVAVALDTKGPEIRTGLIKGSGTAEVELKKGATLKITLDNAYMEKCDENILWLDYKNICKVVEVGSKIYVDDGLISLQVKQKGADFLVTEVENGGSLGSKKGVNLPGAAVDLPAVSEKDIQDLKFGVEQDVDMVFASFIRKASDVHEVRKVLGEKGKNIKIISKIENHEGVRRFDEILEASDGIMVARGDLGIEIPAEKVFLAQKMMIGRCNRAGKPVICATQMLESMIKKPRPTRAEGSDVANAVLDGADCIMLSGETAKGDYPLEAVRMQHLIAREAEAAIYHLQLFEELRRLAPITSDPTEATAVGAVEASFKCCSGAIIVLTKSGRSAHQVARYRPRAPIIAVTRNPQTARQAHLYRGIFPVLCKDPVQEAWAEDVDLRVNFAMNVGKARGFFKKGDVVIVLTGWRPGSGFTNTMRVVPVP

Set 1 — organism: Cryptosporidium parvum; tested at: concentration not given; measurement: activity
CN1CCCCC1CCN1c2ccccc2Sc2ccc([S+](C)[O-])cc21 (stereo not drawn): inactive
CCCc1cc(=O)[nH]c(=S)[nH]1: inactive
O=C1CN(/N=C/c2ccc([N+](=O)[O-])o2)C(=O)N1: inactive

Other studies, line by line
CO[C@H]1CC[C@H](CNc2ccc(S(=O)(=O)NC(=O)c3ccc(N4CCN(CC5=C(c6ccc(Cl)cc6)CC(C)(C)CC5)CC4)cc3Oc3cnc4[nH]ccc4c3)cc2[N+](=O)[O-])CC1  IC50 (BCL2; biochemical): 1.4 nM
CC(O)(P(=O)(O)O)P(=O)(O)OP(=O)(O)OC[C@H]1O[C@@H](n2ccc(N)nc2=O)[C@@H](O)[C@@H]1O (stereo partly drawn)  release rate ratio (human serum; pH 7.4, 37 °C; reference: serum over buffer): 2 fold
O[C@]1(C(F)(F)F)CCCC[C@H]1Nc1ccc(F)cc1  EC50 (estrogen receptor alpha; radioligand binding): 2100 nM
O=C(c1ccc2c(c1)OCCO2)N1CCN(S(=O)(=O)c2c(F)cccc2F)CC1  activation (Pyruvate kinase PKM (PKM, Homo sapiens, UniProt P14618); activator; concentration not given): inactive
O=C(Nc1nc2ccccc2s1)c1cccc2c1CN(c1nc(C(=O)O)c(CCOc3ccc(-n4ncc5cncnc54)cc3)s1)CC2  EC50 (BCL2L1; cell-based): > 10000 nM
O=C1CCc2cc(Nc3cc(OC4CCOCC4)c([N+](=O)[O-])cc3Cl)ccc2N1  IC50 (BCL6 (human); cellular activity): 720 nM
